Measurements collected from several papers.
Compare with care: the assays were run in different laboratories. Numbers after ± are the reported error.
OPRL1: Nociceptin receptor (OPRL1, Homo sapiens, UniProt P41146)

Sequences of proteins named here, by UniProt entry; tags and fusion partners are left off. Residues count along the entry.
UniProt P41146, whole entry: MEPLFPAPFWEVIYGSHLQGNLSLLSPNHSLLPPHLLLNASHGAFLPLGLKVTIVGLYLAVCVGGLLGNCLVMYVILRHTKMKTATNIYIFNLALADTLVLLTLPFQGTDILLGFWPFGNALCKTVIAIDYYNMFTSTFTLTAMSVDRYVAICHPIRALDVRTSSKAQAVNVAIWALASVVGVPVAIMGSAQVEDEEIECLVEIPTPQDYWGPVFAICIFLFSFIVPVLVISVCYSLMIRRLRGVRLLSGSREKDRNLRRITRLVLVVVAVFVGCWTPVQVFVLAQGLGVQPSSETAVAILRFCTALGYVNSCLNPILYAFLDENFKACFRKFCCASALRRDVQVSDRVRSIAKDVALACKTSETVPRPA
UniProt P41145, whole entry: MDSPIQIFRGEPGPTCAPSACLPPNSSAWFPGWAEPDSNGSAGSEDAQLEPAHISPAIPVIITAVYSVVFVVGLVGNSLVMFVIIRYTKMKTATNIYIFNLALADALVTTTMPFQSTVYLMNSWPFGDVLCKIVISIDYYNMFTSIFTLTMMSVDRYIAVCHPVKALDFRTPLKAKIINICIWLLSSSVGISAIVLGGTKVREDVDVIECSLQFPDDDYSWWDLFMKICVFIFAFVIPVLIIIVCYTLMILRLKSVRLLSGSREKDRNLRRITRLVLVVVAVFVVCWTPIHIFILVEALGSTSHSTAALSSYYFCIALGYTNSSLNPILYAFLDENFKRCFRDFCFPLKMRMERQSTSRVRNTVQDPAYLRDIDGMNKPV
UniProt O95931, 11-69 limits assumed: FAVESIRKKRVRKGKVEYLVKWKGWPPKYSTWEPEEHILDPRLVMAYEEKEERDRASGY
UniProt P41144, whole entry: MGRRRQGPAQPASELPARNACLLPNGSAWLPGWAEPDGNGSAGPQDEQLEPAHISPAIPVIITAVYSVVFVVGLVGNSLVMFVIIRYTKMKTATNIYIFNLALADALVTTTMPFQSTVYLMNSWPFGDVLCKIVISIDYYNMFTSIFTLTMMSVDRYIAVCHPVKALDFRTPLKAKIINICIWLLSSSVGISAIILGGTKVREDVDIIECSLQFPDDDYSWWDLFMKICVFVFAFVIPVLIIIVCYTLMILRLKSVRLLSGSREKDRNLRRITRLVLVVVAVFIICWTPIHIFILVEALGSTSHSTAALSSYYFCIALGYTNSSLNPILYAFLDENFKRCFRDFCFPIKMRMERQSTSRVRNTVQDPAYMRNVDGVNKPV
UniProt P21462, whole entry N192K: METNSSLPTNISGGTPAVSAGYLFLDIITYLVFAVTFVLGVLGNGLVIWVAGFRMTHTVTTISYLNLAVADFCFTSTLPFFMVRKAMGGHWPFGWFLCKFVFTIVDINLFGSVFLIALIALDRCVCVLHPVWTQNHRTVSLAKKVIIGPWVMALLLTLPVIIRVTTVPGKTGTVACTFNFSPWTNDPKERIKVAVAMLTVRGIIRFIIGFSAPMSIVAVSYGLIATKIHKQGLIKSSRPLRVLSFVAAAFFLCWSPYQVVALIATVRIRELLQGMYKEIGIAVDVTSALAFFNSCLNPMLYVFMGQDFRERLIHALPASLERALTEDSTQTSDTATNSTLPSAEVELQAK

SMILES = CO/C=C(/C(=O)OC)c1ccccc1Oc1cc(Oc2ccccc2C#N)ncn1; target or system = L/N (Lassa virus, UniProt O09705+P13699); test = viral replication, Gaussia luciferase reporter; endpoint = EC50; result = 7.03 µM
SMILES = N=C(N)NCC(=O)NCC1(Nc2cccc3ccccc23)CCN(Cc2ccccc2)CC1; target or system = OPRK1 (Homo sapiens, UniProt P41145); test = binding; system = HEK293 membranes; setting = together with: [3H]U-69,593; endpoint = Ki; result = 3.68 ± 0.53 µM
SMILES = COc1cccc(C(=O)N2CCN(C(=O)COc3cccc(C)c3)CC2)c1OC; target or system = Chromobox protein homolog 7 (Homo sapiens, UniProt O95931); test = H3K9me3 peptide binding, inhibitor, fluorescence anisotropy; endpoint = Ki; result = 55.3 µM
SMILES = O=CN1CC[C@]23c4c5ccc(O)c4O[C@H]2[C@@H](O)C=C[C@H]3[C@H]1C5; target or system = OPRK1 (Cavia porcellus, UniProt P41144); system = guinea pig brain membranes; setting = together with: tritiated U-69593; endpoint = Ki; result = 0.363 ± 0.032 µM
SMILES = CCC1C(=O)N(C2CCN(C(C)CC(c3ccccc3)c3ccccc3)CC2)c2ccccc21 (stereo not shown); target or system = OPRL1; test = radioligand displacement; setting = together with: [3H]N/OFQ; endpoint = Ki; result = > 10 µM
SMILES = N=C(N)NCCC[C@H](N)C(=O)NCC1(Nc2ccccc2)CCN(Cc2ccccc2)CC1; target or system = OPRK1 (Homo sapiens, UniProt P41145); test = binding; system = HEK293 membranes; setting = together with: [3H]U-69,593; endpoint = Ki; result = 1.23 ± 0.03 µM
SMILES = CCC1C(=O)N(C2CCN(CCCCc3ccc(-c4ccccc4)cc3)CC2)c2ccccc21 (stereo not shown); target or system = OPRK1 (Homo sapiens, UniProt P41145); test = radioligand displacement; setting = together with: tritiated U-69593; endpoint = Ki; result = > 10 µM
SMILES = NC12CC3CC(CC(C3)C1)C2; target or system = Influenza A virus; test = viral replication, plaque size reduction; system = MDCK, A/Swine/Iowa/11-0918/2010 (H1N1); endpoint = EC50; result = < 1 µM
SMILES = CC[C@H](C)[C@H](N)C(=O)N[C@@H](CC(=O)O)C(=O)N[C@@H](CCCNC(=N)N)C(=O)N[C@@H](CC(C)C)C(=O)N[C@@H](CC(N)=O)C(=O)N[C@@H](CCC(=O)O)C(=O)N[C@H](C(=O)N[C@@H](C)C(=O)N[C@@H](CCCCN)C(=O)N[C@@H](CC(N)=O)C(=O)N[C@@H](CC(C)C)C(=O)N[C@@H](CC(N)=O)C(=O)N[C@@H](CCC(=O)O)C(=O)N[C@@H](CO)C(=O)N[C@@H](CC(C)C)C(=O)N[C@H](C(=O)N[C@@H](CC(=O)O)C(=O)N[C@@H](CC(C)C)C(=O)N[C@@H](CCC(N)=O)C(=O)N[C@@H](CCC(=O)O)C(=O)N[C@@H](CC(C)C)C(=O)NCC(=O)N[C@@H](CCCCN)C(=O)N[C@@H](Cc1ccc(O)cc1)C(=O)N[C@@H](CCC(=O)O)C(=O)N[C@@H](CCC(N)=O)C(=O)N[C@@H](Cc1ccc(O)cc1)C(=O)N[C@H](C(=O)N[C@@H](CCCCN)C(=O)N[C@@H](Cc1c[nH]c2ccccc12)C(=O)N1CCC[C@H]1C(=O)N[C@@H](Cc1c[nH]c2ccccc12)C(=O)N[C@@H](Cc1ccc(O)cc1)C(=O)N[C@H](C(=O)N[C@@H](Cc1c[nH]c2ccccc12)C(=O)N[C@@H](CC(C)C)C(=O)O)C(C)C)[C@@H](C)CC)[C@@H](C)CC)C(C)C; target or system = FPR1 (Homo sapiens, UniProt P21462, N192K); test = binding, competition binding; setting = 4 °C, together with: formyl-Nle-Leu-Phe-Nle-Tyr-Lys-FITC 0.3 nM; endpoint = Ki; result = 3.14 ± 0.15 µM
SMILES = CCC1C(=O)N(C2CCN(C3CCCc4ccccc43)CC2)c2ccccc21 (stereo not shown); target or system = OPRK1 (Homo sapiens, UniProt P41145); test = radioligand displacement; setting = together with: tritiated U-69593; endpoint = Ki; result = 0.0563 ± 0.0102 µM
SMILES = CO[C@]12CC[C@@]3(C[C@@H]1[C@](C)(O)c1cccs1)[C@H]1Cc4ccc(O)c5c4[C@@]3(CCN1CC1CC1)[C@H]2O5; target or system = OPRL1; test = binding, radioligand displacement; system = HEK membranes; setting = together with: [3H]N/OFQ; endpoint = Ki; result = 0.075 ± 0.0042 µM
SMILES = CCCSc1nc(N[C@@H]2C[C@H]2c2ccc(F)c(F)c2)c2nnn([C@@H]3C[C@H](OCCO)[C@@H](O)[C@H]3O)c2n1; system = STEMI patients, plasma; setting = 180 mg loading dose, 1 h, together with: fentanyl; endpoint = plasma concentration; result = 185 ± 362 ng/mL
SMILES = N=C(N)NCCNC(=O)C1(Nc2ccccc2)CCN(Cc2ccccc2)CC1; target or system = OPRK1 (Homo sapiens, UniProt P41145); test = binding; system = HEK293 membranes; setting = together with: [3H]U-69,593; endpoint = Ki; result = 1.47 ± 0.19 µM

Excerpt of the above:
SMILES = CCC1C(=O)N(C2CCN(C3CCCc4ccccc43)CC2)c2ccccc21 (stereo not shown); target or system = OPRK1 (Homo sapiens, UniProt P41145); test = radioligand displacement; setting = together with: tritiated U-69593; endpoint = Ki; result = 0.0563 ± 0.0102 µM
